# Published values of several laboratories.
# Each line is one published result; not all experiments were run side by side. ± marks the error that the study gave.
Structure (SMILES),assay,test system,setting,Cmax
CCCCC[C@H](O)CC[C@@H]1[C@H]2Cc3cccc(OCC(=O)O)c3C[C@H]2C[C@H]1O,,"healthy Japanese adults, plasma","inhaled, 36 µg single dose, scaled by body weight/60 kg",0.85 ± 0.15 ng/mL
CCCCCOc1ccc(-c2ccc(-c3ccc(C(=O)N[C@H]4C[C@@H](O)[C@@H](OCC[N+](C)(C)C)NC(=O)[C@@H]5[C@@H](O)[C@@H](C)CN5C(=O)[C@H]([C@@H](C)O)NC(=O)[C@H]([C@H](O)[C@@H](O)c5ccc(O)cc5)NC(=O)[C@@H]5C[C@@H](O)CN5C(=O)[C@H]([C@@H](C)O)NC4=O)cc3)cc2)cc1,,"adult patients not in ICU, plasma","intravenous, 400 mg loading, after first dose, median",17800 ng/mL
O[C@H]1CCCN[C@@H]1CCCn1cnc2c(Cl)c(Cl)ccc21,,"healthy CYP2D6 intermediate metabolizers, plasma","oral, 150 mg single dose",237 ng/mL
Cn1ncc(-c2nc(N[C@H]3CC[C@H](N)CC3)ncc2Cl)c1CC1CC1,HPLC-MS/MS,"patients, plasma","oral, 8 mg, day 5",37.1 ng/mL
Cc1ncc2n1-c1ccc(Cl)cc1C(c1ccccc1F)=NC2,,"healthy volunteers, plasma","oral, 5 mg single dose, day 1, given alone",18 ng/mL
CC[C@H](C)CCCCC(=O)N[C@@H](CCN)C(=O)N[C@H](C(=O)N[C@@H](CCN)C(=O)N[C@H]1CCNC(=O)[C@H]([C@@H](C)O)NC(=O)[C@H](CCN)NC(=O)[C@H](CCN)NC(=O)[C@H](CC(C)C)NC(=O)[C@@H](Cc2ccccc2)NC(=O)[C@H](CCN)NC1=O)[C@@H](C)O,,"critically ill patients, plasma","intravenous, dose not given, steady state, Moderate AUC group, median",6160 ng/mL
C[C@]1(CO)Cc2ncn(-c3ccc(C#N)c(Cl)c3)c2C(=O)O1,,"healthy Japanese adults, plasma",20 mg single dose,1070 nM
CN[C@H](CC(C)C)C(=O)N[C@H]1C(=O)N[C@@H](CC(N)=O)C(=O)N[C@H]2C(=O)N[C@H]3C(=O)N[C@H](C(=O)N[C@H](C(=O)O)c4cc(O)cc(O)c4-c4cc3ccc4O)[C@H](O)c3ccc(c(Cl)c3)Oc3cc2cc(c3O[C@@H]2O[C@H](CO)[C@@H](O)[C@H](O)[C@H]2O[C@H]2C[C@](C)(N)[C@H](O)[C@H](C)O2)Oc2ccc(cc2Cl)[C@H]1O,,"rabbit, serum","intravenous, 7.5 mg/kg",3000 ng/mL

# Some of these lines once more:
Structure (SMILES),assay,test system,setting,Cmax
O[C@H]1CCCN[C@@H]1CCCn1cnc2c(Cl)c(Cl)ccc21,,"healthy CYP2D6 intermediate metabolizers, plasma","oral, 150 mg single dose",237 ng/mL
